{"data": "Experimental data gathered from unrelated publications", "note": "Every numbered part comes from another study and shows a few of its results, in no order."}
{"data": "Study 1", "cell line": "HEK-293T/ACE2", "concentration": "concentration not given", "time": "16 (unit not given)", "relative to": "vehicle"}
{"SMILES": "COc1ccnc(C[S+]([O-])c2nc3ccc(OC(F)F)cc3[nH]2)c1OC (centres unmarked)", "viability [%]": 104}
{"SMILES": "CN(C)CC/C=C1/c2ccccc2Sc2ccc(Cl)cc21", "viability [%]": 99.8}
{"SMILES": "CN(Cc1cnc2nc(N)nc(N)c2n1)c1ccc(C(=O)N[C@@H](CCC(=O)O)C(=O)O)cc1", "viability [%]": 88.3}
{"SMILES": "COC(=O)/C=C/C(=O)OC", "viability [%]": 104}
{"data": "Study 2", "target": "Replicase polyprotein 1ab, polymerase (rep, Severe acute respiratory syndrome coronavirus 2, UniProt P0DTD1)", "observed": "enzyme activity", "mode": "inhibitor", "concentration": "20 µM"}
{"SMILES": "CCc1cccc(CC)c1NC(=O)c1nn(C)c2c1CCc1cnc(Nc3ccc(C(=O)NC4CCN(C)CC4)cc3OC(F)(F)F)nc1-2", "inhibition": "5.78%"}
{"SMILES": "N[C@@]1(C(=O)O)CC[C@@H](C(=O)O)C1", "inhibition": "-5.09%"}
{"SMILES": "CC(C)OC(=O)OCOP(=O)(CO[C@H](C)Cn1cnc2c(N)ncnc21)OCOC(=O)OC(C)C", "inhibition": "-4.27%"}
{"SMILES": "CCCN(CCC)C(=O)C(CCC(=O)OCCCN1CCN(CCOC(=O)Cc2c(C)n(C(=O)c3ccc(Cl)cc3)c3ccc(OC)cc23)CC1)NC(=O)c1ccccc1 (centres unmarked)", "inhibition": "-3.89%"}
{"SMILES": "CNC[C@@H]1CC[C@@H](N)[C@@H](O[C@H]2[C@H](O)[C@@H](O[C@H]3OC[C@](C)(O)[C@H](NC)[C@H]3O)[C@H](N)C[C@@H]2N)O1", "inhibition": "-2.74%"}
{"SMILES": "Cc1cccc(C)c1NC(=O)c1ccc(N)cc1", "inhibition": "-0.64%"}
{"SMILES": "CCc1cccc(CC)c1NC(=O)CN(CC(=O)O)CC(=O)O", "inhibition": "-3.84%"}
{"SMILES": "CCOc1ccccc1O[C@H](c1ccccc1)[C@H]1CNCCO1", "inhibition": "-5.1%"}
{"SMILES": "Fc1ccccc1-c1nc2ccn(Cc3ccc(-c4ccc(C(F)(F)F)cc4C(F)(F)F)nn3)cc-2n1", "inhibition": "3.12%"}
{"SMILES": "O=C(Nc1ccc2[nH]ccc2c1)c1ccccc1", "inhibition": "-1.1%"}
{"SMILES": "O=c1cc(-c2cccc3c2Sc2ccccc2S3)oc(N2CCOCC2)c1", "inhibition": "3.51%"}
{"SMILES": "C=CCc1ccc(O)c(-c2cc(CC=C)ccc2O)c1", "inhibition": "-7.5%"}
{"SMILES": "N[C@@H](C(=O)O)[C@@H](OCc1ccccc1)C(=O)O", "inhibition": "2.07%"}
{"data": "Study 3", "Compound": "CCC(C)SSc1ncc[nH]1 (centres unmarked)", "observed": "enzyme activity", "rep main protease": "Replicase polyprotein 1ab, main protease (rep, Severe acute respiratory syndrome coronavirus 2, UniProt P0DTD1)"}
{"target": "Replicase polyprotein 1ab, 3C-like proteinase (rep, Middle East respiratory syndrome-related coronavirus, UniProt K9N7C7)", "mode": "inhibitor", "concentration": "10 µM", "inhibition": "62.5%"}
{"target": "rep main protease", "concentration": "20 µM", "notes": "with DTT", "inhibition": "7.8%"}
{"target": "rep main protease", "mode": "inhibitor", "concentration": "20 µM", "inhibition": "7.75%"}
{"data": "Other studies, line by line"}
{"Molecule": "CCCCN(CCCC)CCCNC(=O)c1ccc2nc(N3CCCCC3)sc2c1", "tested on": "SARS-CoV-2", "test": "cytopathic effect", "test system": "USA_WA1/2020", "conditions": "retest, 8-point, duplicates", "quantity": "efficacy", "result": "83.7%"}
{"Molecule": "Cn1cnc(Cn2c(=O)[nH]/c(=N\\c3cc4cn(C)nc4cc3Cl)n(Cc3cc(F)c(F)cc3F)c2=O)n1", "test system": "human, moderate renal impairment, plasma", "conditions": "oral, 375 mg single dose", "quantity": "AUC(0-last)", "result": "1440 µg·h/mL"}
{"Molecule": "HTTDPSFLGRYMSAL", "tested on": "human CD4 T cells", "test": "AIM", "test system": "peptide", "quantity": "responding donors", "result": "18%"}
{"Molecule": "CC[C@H](C)[C@H](NC(=O)[C@H](CC(C)C)NC(=O)[C@H](Cc1c[nH]c2ccccc12)NC(=O)[C@H](CCC(N)=O)NC(=O)[C@@H](NC(=O)[C@H](Cc1ccccc1)NC(=O)[C@H](C)NC(=O)[C@H](CCCCNC(=O)COCCOCCNC(=O)COCCOCCNC(=O)CC[C@H](NC(=O)CCCCCCCCCCCCCCCCCCC(=O)O)C(=O)O)NC(=O)[C@H](CCC(N)=O)NC(=O)[C@H](C)NC(=O)[C@@H](NC(=O)[C@H](CCCCN)NC(=O)[C@H](CC(=O)O)NC(=O)[C@H](CC(C)C)NC(=O)C(C)(C)NC(=O)[C@@H](NC(=O)[C@H](CO)NC(=O)[C@H](Cc1ccc(O)cc1)NC(=O)[C@H](CC(=O)O)NC(=O)[C@H](CO)NC(=O)[C@@H](NC(=O)[C@H](Cc1ccccc1)NC(=O)[C@@H](NC(=O)CNC(=O)[C@H](CCC(=O)O)NC(=O)C(C)(C)NC(=O)[C@@H](N)Cc1ccc(O)cc1)[C@@H](C)O)[C@@H](C)O)[C@@H](C)CC)[C@@H](C)CC)C(C)C)C(=O)N[C@@H](C)C(=O)NCC(=O)NCC(=O)N1CCC[C@H]1C(=O)N[C@@H](CO)C(=O)N[C@@H](CO)C(=O)NCC(=O)N[C@@H](C)C(=O)N1CCC[C@H]1C(=O)N1CCC[C@H]1C(=O)N1CCC[C@H]1C(=O)N[C@@H](CO)C(N)=O", "test system": "patients with type 2 diabetes, plasma", "conditions": "subcutaneous, 5 mg, day 22, proof of concept, geometric mean", "quantity": "Cmax", "result": "614 ng/mL"}
{"Molecule": "CNC(=O)[C@@H](NC(=O)[C@H](CC(C)C)[C@H](O)C(=O)NO)C(C)(C)C", "tested on": "Daboia russelii venom proteases (SVMP)", "test": "protease activity, inhibitor", "test system": "MP population", "conditions": "10 µM, together with: azocasein substrate", "how to read": "relative to: venom alone", "quantity": "remaining activity", "result": "0%"}
{"Molecule": "Clc1ccccc1C1(c2ccnc(-c3ccccc3)n2)CCNCC1", "tested on": "SARS-CoV-2", "test": "cytopathic effect", "test system": "USA_WA1/2020", "conditions": "retest, 8-point, duplicates", "quantity": "efficacy", "result": "69.6%"}
{"note": "Repeated from above (study 2):"}
{"SMILES": "Cc1cccc(C)c1NC(=O)c1ccc(N)cc1", "inhibition": "-0.64%"}
{"SMILES": "CCc1cccc(CC)c1NC(=O)CN(CC(=O)O)CC(=O)O", "inhibition": "-3.84%"}
{"SMILES": "CCOc1ccccc1O[C@H](c1ccccc1)[C@H]1CNCCO1", "inhibition": "-5.1%"}
{"SMILES": "Fc1ccccc1-c1nc2ccn(Cc3ccc(-c4ccc(C(F)(F)F)cc4C(F)(F)F)nn3)cc-2n1", "inhibition": "3.12%"}
